# Measured values from different studies.
# Protocols differ between the studies behind these lines. Numbers after ± are the reported error.
# Organism: Staphylococcus aureus
SMILES,assay,test system,setting,scale,endpoint,value
CC(=NNC(=N)N)c1nnn(-c2ccc(C#CC3(O)CCCCC3)cc2)c1C,crystal violet,ATCC 43300 MRSA,MIC,,biofilm inhibition,79.39 ± 0.37%
CC[C@H](C)[C@H](NC(=O)[C@H](CCCN)NC(=O)[C@H](CC(N)=O)NC(=O)[C@H](Cc1c[nH]c2ccccc12)NC(=O)[C@H](Cc1ccccc1)NC(=O)[C@H](CCCN)NC(=O)[C@H](CCCNC(=N)N)NC(=O)[C@H](CC(C)C)NC(=O)[C@H](Cc1c[nH]c2ccccc12)NC(=O)[C@H](CCCN)NC(=O)[C@H](CCCNC(=N)N)NC(=O)[C@H](CC(C)C)NC(=O)CNC(C)=O)C(=O)N[C@@H](CCCN)C(=O)N[C@@H](CCCNC(=N)N)C(N)=O,,,"12 h, together with: plasma pretreatment",reference: MIC without plasma pretreatment,MIC fold increase,4 fold
CN(C)c1cc(CNC2CCCC2)c(O)c2c1C[C@H]1C[C@H]3[C@H](N(C)C)C(O)=C(C(N)=O)C(=O)[C@@]3(O)C(O)=C1C2=O,,"MRSA 5 tetM, mouse thigh infection model","sc, 20 mg/kg, 24 h",reference: untreated control,log10 CFU reduction,2.49 to 3.11 log10
CC1=C[C@@H](C)[C@H]2[C@@H]3C(=O)C(Cl)(Cl)C(=O)[C@H](C)C(=O)O[C@@H](C)/C=C/C=C\[C@@H](C)[C@@H]3C=C[C@@H]2C1,,MSSA and MRSA clinical isolates,,,MIC50,0.05 µg/mL
O=C(CCc1cc(O)c(O)c(O)c1)NCCCCCCCCCC[P+](c1ccccc1)(c1ccccc1)c1ccccc1,propidium iodide uptake,XU212,"half MIC, 1 h",,cells with damaged membrane,26.1%
COc1ccc(NC(=O)CSc2nc3ccccc3c(=O)n2-c2ccc(S(N)(=O)=O)cc2)cc1,"microbial growth, well diffusion",MRSA,"500 µg/mL, 24 h",,inhibition zone,20 mm
O=C(Oc1cccccc1=O)c1ccc(Cl)cc1,time-kill,ATCC 29213,"16 x MIC80, 24 h",,reduction in viable count,2 log10 CFU
COc1cc(OC)c2c(c1)C(=O)c1cc3oc(=O)cc(C)c3c(O)c1C2=O,,MTCC 96,100 µg/disc,,zone of inhibition,< 8 mm
CCCCCCCCCCCCCC(=O)N[C@@H](CCCNC(=N)N)C(=O)N[C@@H](CCCNC(=N)N)C(=O)N[C@@H](CCCNC(=N)N)C(N)=O,XTT,USA300,"1.56 µM, 24 h biofilm, together with: daptomycin 3.12 µM",,biofilm eradication,~95%
CCc1ccccc1NC(=O)CSc1nc2ccccc2c(=O)n1-c1ccc(S(N)(=O)=O)cc1,"microbial growth, well diffusion",MRSA,"500 µg/mL, 24 h",,inhibition zone,14 mm
COC(=O)[C@H](Cc1cnc(C23CC4CC(CC(C4)C2)C3)[nH]1)NC(=O)[C@H](Cc1c[nH]c2ccccc12)NC(=O)[C@@H](N)Cc1cnc(C23CC4CC(CC(C4)C2)C3)[nH]1,,,,,IC50,8.76 µg/mL
CC[P+](CC)(CC)[Au-][S+](C[C@H]1O[C@H](O[C@H]2O[C@H](COC(C)=O)[C@@H](OC(C)=O)[C@H](OC(C)=O)[C@H]2OC(C)=O)[C@H](OC(C)=O)[C@@H](OC(C)=O)[C@@H]1OC(C)=O)[Au-][P+](CC)(CC)CC.[Cl-],broth microdilution,JE2 USA300,,,MBC,0.006 µM
O=C(O)CN1C(=O)/C(=C/c2ccc(-c3ccc(N(c4ccccc4)c4ccccc4)cc3)cc2)NC1=S,broth microdilution,ATCC 25923,,,MBC/MIC ratio,1
CCCCCCCCCC1CC2CCCC3CC(CCCCCCCCC)NC(=N1)N23 (stereo not shown),bacterial growth,MRSA ATCC 33591,,,IC50,3.1 µM
CC(C)C[C@H](NC(=O)[C@H](CC(N)=O)NC(=O)[C@H](CCCNC(=N)N)NC(=O)[C@@H](CC(C)C)NC(=O)[C@H](Cc1ccc(-c2ccccc2)cc1)NC(=O)[C@H](CC(=O)O)NC(=O)[C@H](CCCCN)NC(=O)[C@@H](CC(C)C)NC(=O)[C@H](CCCNC(=N)N)NC(=O)[C@H](CCC(N)=O)NC(=O)[C@@H](NC(=O)[C@@H](CC(C)C)NC(=O)[C@H](CCCNC(=N)N)NC(=O)[C@H](CCCCN)NC(=O)[C@H](Cc1ccc(-c2ccccc2)cc1)NC(=O)CN)C(C)C)C(=O)N[C@H](C(N)=O)C(C)C,bacterial growth,USA300,"1 × MIC, 24 h",,lag time before regrowth,~15 h
O=C1c2ccccc2NC(c2ccc(O)c(O)c2)N1/N=C/c1ccc(O)c(O)c1 (stereo not shown),"respiratory activity, MTT",ATCC 29213,0.5 × MIC,,inhibition,90.1%
S=c1n(CN2CCN(c3ccccn3)CC2)nc(C23CC4CC(CC(C4)C2)C3)n1-c1ccccc1,,IFO 3060,"200 µg/disc, 24 h, 37 °C",,inhibition zone diameter,28 mm
CN[C@H](CC(C)C)C(=O)N[C@H]1C(=O)N[C@@H](CC(N)=O)C(=O)N[C@H]2C(=O)N[C@H]3C(=O)N[C@H](C(=O)N[C@H](C(=O)O)c4cc(O)cc(O)c4-c4cc3ccc4O)[C@H](O)c3ccc(c(Cl)c3)Oc3cc2cc(c3O[C@@H]2O[C@H](CO)[C@@H](O)[C@H](O)[C@H]2O[C@H]2C[C@](C)(NCc3ccc(C(=O)OCCCCCCN(Cc4ccccn4)Cc4ccccn4)cc3)[C@H](O)[C@H](C)O2)Oc2ccc(cc2Cl)[C@H]1O,,MRSA,"together with: N,N'-diacetyl-Lys-D-Ala-D-Ala 500 µM",reference: with over without antagonist,MIC ratio,2 fold
CCCCCCCCCCCC1N=C(N)N=C(N)N1c1ccc(Cl)cc1.Cl (racemic),broth microdilution,ATCC 11632,together with: 7.4 mg/mL thymidine,,MIC90,2 µM
CNC(CC(C)C)C(=O)NC1C(=O)NC(CC(N)=O)C(=O)NC2C(=O)NC3C(=O)NC(C(=O)NC(C(=O)O)c4cc(O)cc(O)c4-c4cc3ccc4O)C(O)c3ccc(c(Cl)c3)Oc3cc2cc(c3OC2OC(CO)C(O)C(O)C2OC2CC(C)(NC(=O)CCCCCCCC[n+]3ccccc3)C(O)C(C)O2)Oc2ccc(cc2Cl)C1O (stereo not shown),agar dilution,MRSA5,,"reference: vancomycin, higher = more active",MIC fold improvement,8 fold
O=[N+]([O-])c1ccc2c(c1)C=[N+]1N3C(=[O+][Cu-2]1([Cl])[O]2)c1ccccc1NC3c1cc([N+](=O)[O-])ccc1O (stereo not shown),"mature biofilm, MTT",ATCC 29213,0.5 × MIC,,reduction of biofilm viability,66.4 ± 10.6%
CC[C@H](C)[C@H](N)C(=O)N[C@@H](CC(C)C)C(=O)N1CCC[C@H]1C(=O)N[C@@H](Cc1c[nH]c2ccccc12)C(=O)N[C@@H](CCCCN)C(=O)N[C@@H](Cc1c[nH]c2ccccc12)C(=O)N1CCC[C@H]1C(=O)N[C@@H](Cc1c[nH]c2ccccc12)C(=O)N[C@@H](Cc1c[nH]c2ccccc12)C(=O)N1CCC[C@H]1C(=O)N[C@@H](Cc1c[nH]c2ccccc12)C(=O)N[C@@H](CCCNC(=N)N)C(=O)N[C@@H](CCCNC(=N)N)C(N)=O,time-kill,"Mueller-Hinton broth, 10% FBS","4 x MIC, 3 h, 37 °C",,log reduction viability,3 log
